# Published values pooled from the literature.
# Parts stem from different laboratories: compare values within a part only.

# Set 1 — method: protein-binding microarray; molecule type: double-stranded DNA, one strand shown; matrix: in vitro; concentration: not given; reading: higher = stronger binding
# Target: Protein max, full length (MAX, Homo sapiens, UniProt P61244-2, residues 1-151)
# Notes: k-mer, scored over probes, only values ≥0.25
Sequence,E-score
AACACGAG,0.443
CGGGCACG,0.371
CCACACGA,0.295
CCCTCCCC,0.278
AGTGTGAT,0.289
CGTGTCCC,0.371
CGTCCACG,0.351
ACACGTGA,0.496
CACCATGC,0.415
ACATCGTG,0.365
CCCCCACG,0.377
ACCACACG,0.346
ACTTGCAC,0.259
ACCCGCGT,0.262
ACGCTGGC,0.297
CAAGCATG,0.421
ACGCGTTC,0.307
GTGGCAAA,0.266
GTGTCAGA,0.287
ACGTGTGC,0.466
GGTGACAC,0.265

# Set 2 — method: protein-binding microarray; molecule type: double-stranded DNA, one strand shown; matrix: in vitro; concentration: 0.8 µM; notes: whole 60-bp probe, no competitor; reading: higher = stronger binding
# Target: Centromere-binding protein 1, full length, N-terminal tag (CBF1, Saccharomyces cerevisiae, UniProt P17106, residues 1-351)
# UniProt P17106, sequence (whole entry, looked up): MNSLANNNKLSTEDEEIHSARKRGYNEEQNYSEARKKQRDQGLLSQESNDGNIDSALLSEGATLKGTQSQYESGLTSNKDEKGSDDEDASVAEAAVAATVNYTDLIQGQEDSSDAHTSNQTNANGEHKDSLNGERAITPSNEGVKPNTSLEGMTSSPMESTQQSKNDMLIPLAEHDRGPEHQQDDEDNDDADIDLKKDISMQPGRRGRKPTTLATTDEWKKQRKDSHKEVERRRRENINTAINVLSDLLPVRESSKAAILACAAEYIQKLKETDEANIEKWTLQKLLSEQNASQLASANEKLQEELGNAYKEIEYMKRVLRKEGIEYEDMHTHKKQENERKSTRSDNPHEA
Sequence,fluorescence intensity [a.u.]
CTAAGTACTTTTCCACGTGTTTCGATTGCCTTTTTCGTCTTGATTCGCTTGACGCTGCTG,2190
CTAGATATAATCAGCATCATGTTTTTTAAGCGATTCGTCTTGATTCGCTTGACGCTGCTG,535
GAAGACACCGATAAACAGGTGAAATATTGAAAATAGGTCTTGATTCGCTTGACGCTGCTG,553
GAATTCTGTAGGAGTCACGTTTCCCGTTGAAATTAGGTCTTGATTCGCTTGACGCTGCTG,2750
CCTAACTACTATAGGCACGATAAATAGCTTCGTACAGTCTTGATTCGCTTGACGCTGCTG,482
CTAGCCAGAACGCTTCTGGTGGTGTAAATACGGTTCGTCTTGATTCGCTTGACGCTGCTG,515
GAATTTTGTTTTTATCAGTTGAGATTGAAGTATTAGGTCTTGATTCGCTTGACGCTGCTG,539
CCTAACTACTATAACCACGCTTAATAGCTTCGTACAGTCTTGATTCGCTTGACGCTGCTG,539
CTATTTGCATACACGTGACTTATATTTGGTGTCTTCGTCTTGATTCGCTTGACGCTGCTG,19200
CTATAAAATATATCTGACGTCACTGGTTTGCAGTTCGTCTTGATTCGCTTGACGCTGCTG,546
GAATATAACTAGAACATCAGAATTATGTATGCATAGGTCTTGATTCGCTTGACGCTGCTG,519
GAAGATATAGATGTGCACATGTCGTTTTTTGAGTAGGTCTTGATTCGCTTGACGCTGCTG,913
GAAAAAAGGCAATATCACGTGCTTTTACAAATATAGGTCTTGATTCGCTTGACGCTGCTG,11200
CTACAAACTCCCCACCTGACAATGTCTTCAACCTTCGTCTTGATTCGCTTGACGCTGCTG,737
CTAAATAACACTAGTAACATCAACAACACCAATTTCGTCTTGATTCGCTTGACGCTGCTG,492
GAAAACTGCTCGGCATACCTCACGCTTATTGCATAGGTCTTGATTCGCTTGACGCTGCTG,528
GAAAAACCCTTTACGGGCGTGCATGATGTATCATAGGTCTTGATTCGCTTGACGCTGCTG,529
GAAGACTCCTACATACACGGGACCTGCAAGGTGTAGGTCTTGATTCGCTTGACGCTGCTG,1060
GAACAGATATTAGGTGGTGGTACCAGGGCCTGCTAGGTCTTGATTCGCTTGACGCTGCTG,473
GAATTTAACCGCCGTCACGCTCGTGCAGCGCGATAGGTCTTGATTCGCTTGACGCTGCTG,772
CTATCCACCTGCGAACACGTGGAAGTCGCAATTTTCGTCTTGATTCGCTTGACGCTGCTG,3070
CCTAACTACTATAGTGACGTTGGATAGCTTCGTACAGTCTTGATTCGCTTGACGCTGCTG,495
GAAATGCTGCACCCTAACGTGCATGTATATATATAGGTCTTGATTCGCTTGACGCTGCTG,567
GAAAAGGAAATATTCCACATGTCGGATTAATTTTAGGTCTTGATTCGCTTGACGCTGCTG,566
CTAGACCAGCTAAAACACGTTGAAAGCAGATATTTCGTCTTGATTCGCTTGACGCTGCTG,578

# Set 3 — method: protein-binding microarray; molecule type: double-stranded DNA, one strand shown; matrix: in vitro; concentration: 2540 nM top; notes: 60-bp whole probe; together with: salmon DNA 0.4 mg/ml; baseline: random background probes; reading: higher = stronger binding; all sequences stand within: GCCTAGCAC … GTCTTGATTCGCTTGACGCTGCTG
# Target: Interferon regulatory factor 3, full length, phosphomimetic (IRF3, Homo sapiens, UniProt Q14653, residues 1-427, S386D/S396D/S398D/S402D/T404D/S405D)
# UniProt Q14653, sequence (whole entry, unmodified, looked up): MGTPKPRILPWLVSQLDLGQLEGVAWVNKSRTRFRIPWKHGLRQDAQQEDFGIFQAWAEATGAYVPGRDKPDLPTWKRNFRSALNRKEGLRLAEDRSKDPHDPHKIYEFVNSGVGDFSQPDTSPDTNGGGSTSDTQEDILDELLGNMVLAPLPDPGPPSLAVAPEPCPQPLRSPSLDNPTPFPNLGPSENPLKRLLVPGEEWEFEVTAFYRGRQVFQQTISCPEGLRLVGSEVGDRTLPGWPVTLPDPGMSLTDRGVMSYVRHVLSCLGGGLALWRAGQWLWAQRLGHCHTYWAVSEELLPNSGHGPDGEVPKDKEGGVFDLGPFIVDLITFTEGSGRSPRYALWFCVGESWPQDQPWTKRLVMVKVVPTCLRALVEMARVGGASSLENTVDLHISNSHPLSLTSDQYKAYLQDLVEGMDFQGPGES
Sequence,fitted relative affinity [z-score]
TTAGGTTTCCTACCGCTTTAGTGCTAG,3.65
GACGGCCTGGACACTGGGGACGTGCTA,-1.15
TCATGTCTGTGTCACAGAGAGTGCTAG,0.451
GACGATATTGGGACTGGAGACGTGCTA,-0.306
TCAATAATTTTTTTCTAACTGTGCTAG,0.121
TTAGGGCTCCTTTTCCTTTAGTGCTAG,3.8
TAGCTTCCATTTTCTGAACGTGTGCTA,3.13
GACGGACTGGGACTTGGGACGTGCTAG,-0.91
TCTTTTTTTCTTTTATTAGTGTGCTAG,2.82
TTAGATCTCGGTCTCGATTAGTGCTAG,0.537
TTAGGTTTCGAGTTTCGGTTAGTGCTA,5.43
TTAGGTCGCCTACTGCTTTAGTGCTAG,-0.181
ATAGGTCTCGGTTTCGGTTAGTGCTAG,5.74
TTAGATCTCAGTCTCGATTTGTGCTAG,0.86
TTATGTTTCGACACTGGGTTAGTGCTA,1.96
TCAATTCTCATTTCCAAACTGTGCTAG,2.94
TTAGATATCGGGTTTCGATAAGTGCTA,1.67

# Set 4 — method: protein binding microarray; molecule type: double-stranded DNA, one strand shown; matrix: in vitro; concentration: not given; baseline: not given; reading: higher = stronger binding
# Target: Histone acetyltransferase KAT6A, both winged helices, GST fusion (KAT6A, Homo sapiens, UniProt Q92794, residues 1-181)
# Notes: 8-mer, flanks averaged, mean of 2 arrays, mostly near background
# Construct (chain): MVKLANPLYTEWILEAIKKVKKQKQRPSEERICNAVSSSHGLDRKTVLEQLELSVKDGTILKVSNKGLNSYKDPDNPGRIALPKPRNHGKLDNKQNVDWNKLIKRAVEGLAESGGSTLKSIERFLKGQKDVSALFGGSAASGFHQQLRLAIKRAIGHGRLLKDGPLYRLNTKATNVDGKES
Sequence,E-score
AAACTCAC,0.0171
ACTCGATA,-0.0704
AATTTCAG,-0.0512
ATAATTTA,0.0177
TCTACACA,-0.146
CGCGCAAC,0.385
AGGGTCGC,0.0341
AAACGTGG,-0.226
CCACCTCG,-0.138
ACCCAGGT,-0.0835
ATATTGTA,0.0386
AAGAAGCA,-0.0552
CGTTGCAC,0.0893
AATACGTA,0.0403
ATTGGCCC,-0.137
CCAGTGAA,-0.0921
ATCACTCG,0.0292
CGGTATTA,0.123
CAGTTTGA,-0.0759
GCTTCCTA,0.0259
ACCTTACC,-0.145
AGAACCAA,-0.186
CGTGGGCC,0.0741
CAGACGGG,0.123
ATATCGCA,-0.024

# Excerpt of the above (set 1):
Sequence,E-score
ACACGTGA,0.496
CACCATGC,0.415
ACATCGTG,0.365
CCCCCACG,0.377
ACCACACG,0.346
ACTTGCAC,0.259
ACCCGCGT,0.262
ACGCTGGC,0.297
CAAGCATG,0.421
ACGCGTTC,0.307
GTGGCAAA,0.266
GTGTCAGA,0.287
